Measured values collected from several papers.
Each line is one published result; not all experiments were run side by side. “And” joins repeats or separate records; there may be more than shown. ± gives the spread as reported.
Cell line: HCT-116

COc1cc(CNC(=O)C[C@H](C)CCC=C(C)C)ccc1OCc1cn(-c2ccccc2[N+](=O)[O-])nn1  growth percent (SRB; 10 µM, 48 h): 49.1%
CC(=O)OC[C@H]1O[C@@H](Sc2sc(C(=O)c3ccc(C)cc3)c(N)c2-c2nc3ccccc3s2)[C@H](OC(C)=O)[C@@H](OC(C)=O)[C@H]1OC(C)=O  growth (SRB; 10 µM, 48 h; baseline: untreated): 106%
COc1ccc(NC(=O)N/N=C2\CC3(CCN(C)CC3)Oc3ccccc32)cc1  cell cycle distribution (PI staining, flow cytometry; concentration not given, %G2/M): 9.51%
N#Cc1c(F)c(F)c2nc(SCc3ccc4ccccc4c3)nc(N)c2c1F  cells in G2/M phase (DAPI staining imaging; 2.56 µM, 24 h): 51.8%
O=C(Cn1c(=O)c(Cc2ccccc2)nc2ccccc21)NN1C(=O)c2ccccc2C1=O  selectivity index (MTT; baseline: HCT-116 over normal colonocytes): 7.05 and 7.04
N=C(N)NCCC[C@@H](N)C(=O)N[C@@H](CCCNC(=N)N)C(=O)N[C@@H](Cc1ccc(C(F)(F)F)cc1)C(=O)N[C@@H](CCCNC(=N)N)C(=O)N[C@@H]1CSCCS(=O)(=O)CCSC[C@@H](C(=O)N[C@H](CCCNC(=N)N)C(=O)N[C@@H](CC2CCCCC2)C(=O)N[C@@H](CCCNC(=N)N)C(=O)N2Cc3ccccc3C2C(N)=O)NC(=O)[C@H](Cc2cccc3ccccc23)NC(=O)[C@H](Cc2ccc(O)cc2)NC1=O (some centres unmarked)  EC50: 14.3 ± 2.5 µM
COCCSc1nc(N)c2c(F)c(C#N)c(F)c(Cl)c2n1  cells in G1 phase (DAPI staining imaging; 1.02 µM, 24 h): 49.5%
N=C(N)NS(=O)(=O)c1ccc(-n2cc(Cn3c(=O)c(Cc4ccccc4)nc4ccccc43)nn2)cc1  selectivity index (MTT; baseline: HCT-116 over normal colonocytes): 3.96 and 3.97
CC/C=C\C/C=C\C/C=C\C/C=C\C/C=C\C/C=C\CCC(=O)Nc1ccn(C2OC(CO)C(O)C2(F)F)c(=O)n1 (centres unmarked)  TGI (NCI60 screen): 15.3 µM
C=CCSc1nc(N)c2c(F)c(C#N)c(F)c(Cl)c2n1  cells in G2/M phase (DAPI staining imaging; 1.02 µM, 24 h): 31.1%
COC(=O)CCNC(=O)CNC(=O)CCn1nc(Cc2ccccc2)c2ccccc2c1=O  early apoptotic cells (0.32 µM, 48 h): 19.9%
Cc1ccc(C(C)C)cc1.[Cl][Ru]([Cl])[P](CP(c1ccccc1)c1ccccc1)(c1ccccc1)c1ccccc1  IC90 (cell growth or viability, trypan blue; 48 h): 2390 µM
CSc1nc(Nc2ccc(/C(C)=N/NC(=O)c3ccc([N+](=O)[O-])cc3[N+](=O)[O-])cc2)c(C#N)c(-c2ccccc2)n1  S phase cells (flow cytometry; concentration not given; baseline: untreated control): 2.68 fold
CC1CCCN(CCCNC(=O)C2=Cc3sc4c(c3CS2)CCCC4)C1 (centres unmarked)  esterified cholesterol (20 µM, 48 h; baseline: vehicle): 4.7 fold
Cc1ccc(C(=O)N(Cc2ccc(C(F)(F)F)cc2)C2CC2)c(O)c1O  cell migration (wound healing; 20 µM, 24 and 48 h): decreased
COc1cc(CNC(=O)C[C@H](C)CCC=C(C)C)ccc1OCc1cn(-c2ccc(F)cc2)nn1  growth percent (SRB; 10 µM, 48 h): 47.9%
CC(C)OC1(CO)CCC2C(C)(CO)C(O)CCC2(C)C1C=CC1=CCOC1=O (centres unmarked)  inhibition (cell growth or viability, MTT; 20 µM, 48 h): 59%
Cc1ccc(C(C)C)cc1.[Au][S]C1=NCCS1.[Cl][Ru][Cl].c1ccc(P(CP(c2ccccc2)c2ccccc2)c2ccccc2)cc1  IC90 (cell growth or viability, trypan blue; 48 h): 23.2 µM
CCOC(=O)C/C(C)=N/NC(=O)c1nc2ccccc2n(C)c1=O  inhibition (cell growth or viability, MTT; 10 µM): 96.4%
COc1cc(CNC(=O)C[C@H](C)CCC=C(C)C)ccc1OCc1cn(-c2cccc(C(F)(F)F)c2)nn1  growth percent (SRB; 10 µM, 48 h): 12.5%
O=C(Cn1c(=O)c(Cc2ccccc2)nc2ccccc21)OCCNCCO  mRNA level (qRT-PCR, refers to: VEGF; concentration not given, 72 h; baseline: untreated): 0.497 ± 0.015 fold
CC(C)C1=C(O)C(=O)C2=C(C1=O)[C@H](OC=O)[C@@H](O)[C@H]1C(C)(C)CCC[C@]21C  GI50 (cell growth or viability, SRB; 48 h): 7.9 µM
C[C@]1(CO)C2CC[C@@]3(CO3)[C@@H](/C=C/C3=CCOC3=O)[C@]2(C)CC[C@H]1O (some centres unmarked)  inhibition (cell growth or viability, MTT; 20 µM, 48 h): 0%
N=C(N)NCCC[C@H](NC(=O)[C@H](CCCNC(=N)N)NC(=O)[C@H](CCCNC(=N)N)NC(=O)[C@H](CCCNC(=N)N)NC(=O)[C@H](CCCNC(=N)N)NC(=O)[C@H](CCCNC(=N)N)NC(=O)[C@H](CCCCN)NC(=O)[C@@H]1CCCN1C(=O)Cc1ccc(O)cc1)C(N)=O  cellular over enzymatic IC50 ratio (refers to: N-terminal SPK trimethylation): > 100 fold
O=C(COc1ccccc1/C=N/Nc1nc(-c2ccc(Cl)cc2)cs1)N1CCN(C(=O)COc2ccccc2/C=N/Nc2nc(-c3ccc(Cl)cc3)cs2)CC1  inhibition (cell growth or viability, SRB; 100 µM, 48 h): 63.6%
O=C(/C=C/c1ccc(O)cc1)OC(CO)C(=O)O (centres unmarked)  mRNA level (Wnt/β-catenin signalling, RT-qPCR, refers to: B9L; 25 µM; baseline: HPRT): no effect
O=C1Nc2ccccc2/C1=N\Nc1nnc2n1N=C(c1ccc(Cl)cc1)CS2  inhibition (cell growth or viability, SRB; 10 µM): 17%
NS(=O)(=O)c1ccc(-n2cc(Cn3c(=O)c(Cc4ccccc4)nc4ccccc43)nn2)cc1  mRNA level (qRT-PCR, refers to: BAX; concentration not given, 72 h; baseline: untreated): 3.56 ± 0.042 fold
Cc1ccc2nc(C)n(/N=C/c3ccc(C(=O)O)cc3)c(=O)c2c1  viability (cell growth or viability, LDH; 200 µg/mL, 24 h): 36%

Repeated from above:
Cc1ccc(C(C)C)cc1.[Cl][Ru]([Cl])[P](CP(c1ccccc1)c1ccccc1)(c1ccccc1)c1ccccc1  IC90 (cell growth or viability, trypan blue; 48 h): 2390 µM
CSc1nc(Nc2ccc(/C(C)=N/NC(=O)c3ccc([N+](=O)[O-])cc3[N+](=O)[O-])cc2)c(C#N)c(-c2ccccc2)n1  S phase cells (flow cytometry; concentration not given; baseline: untreated control): 2.68 fold
CC1CCCN(CCCNC(=O)C2=Cc3sc4c(c3CS2)CCCC4)C1 (centres unmarked)  esterified cholesterol (20 µM, 48 h; baseline: vehicle): 4.7 fold
Cc1ccc(C(=O)N(Cc2ccc(C(F)(F)F)cc2)C2CC2)c(O)c1O  cell migration (wound healing; 20 µM, 24 and 48 h): decreased
COc1cc(CNC(=O)C[C@H](C)CCC=C(C)C)ccc1OCc1cn(-c2ccc(F)cc2)nn1  growth percent (SRB; 10 µM, 48 h): 47.9%
